Experimental data gathered from unrelated publications.
Parts stem from different laboratories: compare values within a part only. Positions count from the first letter of the parent shown.

Series 1
Target: NFE2L3, bZIP domain (human)
Method: DHFR protein complementation
Sample: yeast
Notes: single substitutions, most at no-binding floor
Baseline: wild-type JUN-FOS pair
Reading: higher = stronger binding
Starting sequence: JUN, bZIP domain (human); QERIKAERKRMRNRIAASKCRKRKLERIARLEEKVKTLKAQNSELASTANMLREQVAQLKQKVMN; partner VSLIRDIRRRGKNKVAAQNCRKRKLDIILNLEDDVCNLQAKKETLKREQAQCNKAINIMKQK
Variant	binding fitness [natural log]
Q55K	-1.57
K34T	-1.45
M51E	-1.54
E32R	-1.36
I28K	-1.26
T37A	-1.36
E33C	-1.57
Q55S	-1.32
V56D	-1.49
S47E	-1.61
I28H	-1.58
V56G	-1.56
T48C	-1.26
A46W	-1.6
Q55L	-1.38
E54R	-1.54
E32L	-1.4
L52T	-1.51
Q41C	-1.53
N42Q	-1.49
T48F	-1.28
V56F	-1.35
T37M	-1.45
L52I	-1.59

Series 2
Target: RING finger protein unkempt homolog, zinc fingers 1-6, GST-SBP tag (UNK, Homo sapiens, UniProt Q9C0B0, residues 30-357)
Method: RNA Bind-n-Seq
Molecule type: RNA
Sample: in vitro
Concentration: not given
Notes: RNA with constant flanks, human and mouse sites, ends assumed
Baseline: input RNA pool
Reading: higher = stronger binding
Constant ends, left off below: GGGAGUUCUACAGUCCGACGAUC … CAACAGAGGAUUGAGCAUCA
Residues (chain): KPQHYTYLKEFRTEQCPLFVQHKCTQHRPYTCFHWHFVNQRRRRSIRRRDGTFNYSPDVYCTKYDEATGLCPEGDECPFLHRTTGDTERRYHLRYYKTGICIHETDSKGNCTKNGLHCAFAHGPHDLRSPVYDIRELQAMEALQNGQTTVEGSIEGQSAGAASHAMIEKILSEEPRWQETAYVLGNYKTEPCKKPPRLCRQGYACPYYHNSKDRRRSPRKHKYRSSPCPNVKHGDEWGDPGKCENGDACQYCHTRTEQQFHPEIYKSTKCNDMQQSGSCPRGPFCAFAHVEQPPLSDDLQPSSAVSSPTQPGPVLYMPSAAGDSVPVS
Oligonucleotide	bound/input enrichment
ACUAGCACAUUUUCCGAGUACACAGUUGUGGCUGACAUCUCUGUUGCUAAAAUCGAUCCUUCGGCCCCUUUGGAUAAAGUCUGCCUUCUCGGCUGUGGUAUUUCAACUGGCUACGGGGCU	0.829 ratio
AUGGGGGCUAAUCCCUAUGGCCAAGCAGCAGCAUCUAACCAACUGGGUUCCUGGCCCGAUGGCAUGUUGUCCAUGGAACAAGUUUCUCAUGGCACUCAAAAUAGGCCUCUUCUUAGGAAU	0.169 ratio
AGUUUAUUAUUGUUGCUUAAUAAGAAAACACGGUUCCACUUGGGCUAUUUUAAGGGCAGGUAGCUAUCACUCUGUCUUGUGUUAUGAUUAAUAUUAUCUGCAUAAGCAUAGAAUAAUACU	0.533 ratio
UAAAGAGCAGCUGGAUUCAUCUAAUAGUACCAUUGCCAUUUUACAAACUGAGAAAGACAAACUAGAGUUGGAAAUUACAGAUUCUAAAAAAGAACAAGAUGAUCUCUUGGUGCUCUUGGC	0.84 ratio
AUGGCACAACUUCUGGAUCUCUCUGUGGAUGAGUCAGAGGCUUUCCUCUCGAAUCUAGUCGUUAACAAGACCAUCUUUGCUAAAGUAGACAGGUUGGCUGGAGUCAUCAACUUCCAGAGA	0.226 ratio
UGUUUGAAAAUGUUUAUUUCUGUUUAUGGUGUAAUCAUUCUGAGGUGAGGCUUUUCUUAUUUCCUUUGCAUUUUGCUAGAGCUGUGCUGAGUUCAGCAUUUGCUUAUUUAACCACUACAU	0.322 ratio
AUGAAAAGACUAAUUGGAUGAAUACUAUCUUUCUAAUGAAUUUGUGAUUAAAUAUAUAAUAGUUGUUGAAAAUGAGUAACUUUGCGUUCUCCCCCUAGGUUGUUCUUAGAUGCCUGGCUU	21 ratio
UUAUACCUUUUGGUUAUAAGCCCUGUGUUUGCCAUCCUUGAUCACUUGGCGGUGACUUUGUAGAGAUUGAAGUGGAGGAGUUAAGACACAUUGACUGUACCACAGACACACAUGUAUACU	0.316 ratio
GGCCAGGCUUUUGAGCUGAUCUUGAAGCCACCAUCUCCCAUCUCAGAAGCUCCACGAACUCUAGCUUCUCCAAAGAAGAAAGACCUGUCUCUGGAGGAGAUUCAGAAAAAGCUGGAGGCU	0.0632 ratio
UCCAGGACUCUCAAGCUGGCAUCAUAUUAUUUGUUAUUUAAAAGACACAAUUAUUUUAGGUAGAUCUUUUUUUUUAAUGAGGUGGGGUAAGGCUGUGACUUUUGAUCUAAACAAAAGAUC	15.2 ratio
AAAUUUAGAGCAUGUUUAAAGAUUCUCACAGUAGAACUUCGUACUUUAUCUACUGGCUAUGAAAUAGAUGGUGGAAAAUUGCGUUACCAACUAUACCACUGGCUUGAAAAAGAGGUGAUA	0.517 ratio

Series 3
Target: Histone acetyltransferase KAT6A, winged helix 2, GST fusion (KAT6A, Homo sapiens, UniProt Q92794, residues 85-181)
Method: protein binding microarray
Molecule type: double-stranded DNA, one strand shown
Sample: in vitro
Concentration: not given
Notes: 8-mer, flanks averaged, mean of 2 arrays, mostly near background
Baseline: not given
Reading: higher = stronger binding
Construct (chain): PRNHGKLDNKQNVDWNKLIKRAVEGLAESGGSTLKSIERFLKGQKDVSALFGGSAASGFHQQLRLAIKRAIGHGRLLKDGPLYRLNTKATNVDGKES
Oligonucleotide	E-score
ATGCCTCA	0.0499
CCATCCGG	0.116
AGGATCTA	-0.125
TGAAATCA	0.12
GCCGATAA	0.0468
AATTATAT	-0.00201
TGCTCGAA	0.0759
AAGCTGAT	0.0665
CTAGCCAC	-0.106
AAGATTAG	-0.032
TCTAATAA	-0.0524
GAGTGTGA	0.00404
ACGACGGA	-0.047
GCCAAACA	0.00809
ATATCGAT	-0.00436
CGAGCTCG	0.362
CCCGGTCC	0.0381
CCGCAGCA	0.165
GCTTCTAA	-0.254
GTCGCAAC	-0.0333
ACCCCGAC	-0.055
AAGAAATT	0.214
GAAGACCA	0.0756
AGAGCCAC	0.0411

Series 4
Target: RNA binding protein fox-1 homolog 2, RRM domain, GST-SBP tag (RBFOX2, Homo sapiens, UniProt O43251-10, residues 100-194)
Method: RNA Bind-n-Seq
Molecule type: RNA
Sample: in vitro
Concentration: 365 nM
Notes: natural RNA segment, single round, ends assumed
Baseline: no-protein control
Reading: higher = stronger binding
Constant ends, left off below: GGGAGUUCUACAGUCCGACGAUC … UGGAAUUCUCGGGUGCCAA
Construct (chain): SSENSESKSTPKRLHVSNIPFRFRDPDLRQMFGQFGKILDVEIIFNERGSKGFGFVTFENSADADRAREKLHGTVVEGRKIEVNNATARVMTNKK
Oligonucleotide	RBNS enrichment (R)
ACAGUGAGUUGAGUUGGCUCUCCCACAGUCUUUGAGGUGAAUUACAAAAGUCCAGCCAUUAUCAUCCUCCUGAGUUAUUUGAAAUGAUUUUUUUUGUACAUUUUGGCUGC	0.747
GAAGGCUGGUGCACUCAGGGCUGUGGGAAGGCAGAAUCACCUCAUCCAUUUGGCCUGUGAAGGAAGUAACCUCACUUUGCUGUCUGAGCAGCAUGUAUUCCUGGCAUGGG	2.05
AUAAUAAAUGAAGAUGCCUAAAAUAGUGUUCCAAACUUUCAUGGUCAUUUUCAUUUUUACUGAAACAAAUUCAAAAGAACAGUCUUGGUUCCCCAAAUCACUUCAAUCUC	0.376
CAGGUAACAGGAGUACCUUUGUUUUAACAGACAAAAGUAAUCUCCAGGCCUUAGGGACUCAUAAAGAUAUGAGUACAUUGCUUAUUGGAAACUUGUAGGUUCACAUAUUA	0.334
ACAGCAAGCUCCAGCUGUUGGAAGGCUUAGAAAGAAAAUAUGAGGACAAUCAAAAAUACUUAGAAGAUAAAGCUCAAGAAUUGGUGCGACUGGAAGGAGAGGUUCGCUCC	0.382
CUGGGAUUACAGGCUUGAGCCACCACGCCCAGCCUAAGAUUUUAUGAUUAAAAAAAAUUCAAGCUCAAUACCCACAUAAAUUAUAACGUUUCUCAGGAAGUAGUCCCUUA	0.403
UCUAGGAAUGCAGUUAGUAAAAGCCUGGCGUCUACUGCAGAGUAUGUAUACUUGGUGGUAGAGGGCUUGCUUGAAGACCCAAGUUCCAUCCCUAGCACCACAGAGCAGGG	0.608
CACUAGUGAUCACUCUUCAGAGAGUGACUCUCGGGAAAACUGAGAGAAAUGGCUUCCGGAUGAGAUGGACCUGACUGGGGAAACACCUUUGAGCUUGUAACCUAGCAGCU	0.3
CAUUGCUUACCCCGAGCCGGGGUUCCCUCCUCCCGGCCCGCUGCCGCCACCCACCUCUCCUGCAGGCUGCGACCUGCAGUGGCCCGUCUCAGGCCCUGCUCACUCCCGGG	0.553
CAUUCUUCCCCUUGUUGGAUUUCAUACAGGAGCCUGGAGUGAGUGCUACACUAAGAAAGAAAUAGAGUUUGACAUAAGUUGAGAUUUUAGUGUGAUCUGGAUGUGUGAUA	0.771
GAGUUUUGGAGUCUUGUAUGAUUAUCAGUAUUCCCCUGUCAAAAUCAAAUCUAUUCAGGUUUCUUCACUGUUGAGAACACCUAAAUGUUUUUAUUUUUGAGAAGUGGGGA	1.01
AGCUCUUCAGAGUGUAAAUGAGGGUCUGACUGGAAGCAGGGCAGCAGCUGUAAUUCUUCCAGCUCUCUCCAAAAGCACCAGUUCUUAUCUUGGGCCUGCACUAGGCUUUA	0.392

Repeated from above (series 1):
Variant	binding fitness [natural log]
I28H	-1.58
E54R	-1.54
V56F	-1.35
E32R	-1.36
Q55K	-1.57
I28K	-1.26
